Experimental data from different studies.
Numbers after ± are the reported error.
Organism: varicella-zoster virus

For `O=C(N/N=C1\C(=O)Nc2ccccc21)N/N=C1\C(=O)Nc2ccccc21`, the EC50 was greater than 100 µM (plaque formation; HEL, TK-).
`CCOC(=O)C(C)NP(=O)(COC(CF)CN1CN2C=C(c3ccccc3)NC2=NC1=O)NC(C)C(=O)OCC` (centres unmarked) gave an EC50 of greater than 100 µM (plaque formation; HEL, TK-deficient 07-1).
For `O=Cc1cc(Cn2cc(F)c(=O)[nH]c2=O)ccc1O`, the EC50 was greater than 100 µM (plaque formation, plaque reduction; HEL fibroblasts, TK+ strain OKA).
The EC50 of `CCOP(=O)(OCC)[C@@H]1C[C@H](C(=O)Nc2cc3c4c(cccc4c2)C(=O)N(CCN(CC)CC)C3=O)ON1C` (racemic) is reported as 44 µM (viral plaque formation, plaque reduction; HEL, thymidine kinase deficient).
`CCCCCCCCCCCCCCCCOCCCOP(=O)(O)COCCn1cnc2c(=O)[nH]c(=O)[nH]c21` gave an EC50 of 0.64 ± 0.77 µM (plaque formation; HEL, TK- 07-1).
With `O=C1Nc2ccccc2/C1=N/NC(=S)N/N=C1\C(=O)Nc2ccccc21` the EC50 was greater than 20 µM (plaque formation; HEL, TK-).
`NC1=NC(=O)N(CC(O)C(F)(F)F)CN1` (centres unmarked) gave an EC50 of greater than 100 µM (plaque formation; HEL, TK-deficient 07-1).
The EC50 of `Cc1nn(Cc2ccc(O)c(C=O)c2)c(=O)[nH]c1=O` is reported as 47 µM (plaque formation, plaque reduction; HEL fibroblasts, TK+ strain OKA).
For `O=C1/C(=N\NC(=S)NN=Cc2ccccc2)c2ccccc2N1Cc1ccccc1`, the EC50 was greater than 100 µM (plaque formation; HEL, TK+).
`CCOC(=O)C(C)NP(=O)(COC(CF)CN1CN2C=C(c3ccc([N+](=O)[O-])cc3)NC2=NC1=O)NC(C)C(=O)OCC` (centres unmarked) gave an EC50 of greater than 100 µM (plaque formation; HEL, TK-deficient 07-1).
With `Cc1cn(Cc2ccc(O)c(C=O)c2)c(=O)[nH]c1=O` the EC50 was greater than 100 µM (plaque formation, plaque reduction; HEL fibroblasts, TK- strain 07-1).
For `O=c1[nH]c(=O)n([C@H]2C[C@H](O)[C@@H](CO)O2)cc1/C=C/Br`, the EC50 was 0.019 ± 0.01 µM (plaque formation; HEL, Oka TK+).
`O=c1[nH]c(=O)n([C@H]2C[C@H](O)[C@@H](CO)O2)cc1/C=C/Br` gave an EC50 of 143 µM (plaque formation; HEL, TK-).
The EC50 of `Nc1ccn(C[C@@H](CO)OCP(=O)(O)O)c(=O)n1` is reported as 0.78 ± 0.32 µM (plaque formation; HEL, TK- 07-1).
`CCOC(=O)C(C)NP(=O)(COC(CF)CN1CN2C=C(c3ccc(OC)cc3)NC2=NC1=O)NC(C)C(=O)OCC` (centres unmarked) has an EC50 of greater than 100 µM (plaque formation; HEL, TK-deficient 07-1).
`Cc1ccc2c(c1)/C(=N/NC(=O)N/N=C1\C(=O)Nc3ccc(C)cc31)C(=O)N2` gave an EC50 of greater than 100 µM (plaque formation; HEL, TK-).
`Nc1ncn(C[C@@H](CF)OCP(=O)(O)O)c(=O)n1` has an EC50 of greater than 100 µM (plaque formation; HEL, TK-deficient 07-1).
`O=C(N/N=C1\C(=O)Nc2ccc([N+](=O)[O-])cc21)N/N=C1\C(=O)Nc2ccc([N+](=O)[O-])cc21` has an EC50 of greater than 20 µM (plaque formation; HEL, TK-).
The EC50 of `O=Cc1cc(Cn2ccc(=O)[nH]c2=O)ccc1O` is reported as greater than 100 µM (plaque formation, plaque reduction; HEL fibroblasts, TK- strain 07-1).
With `O=c1nc(NC2CC2)c2ncn(CCOCP(=O)(O)O)c2[nH]1` the EC50 was greater than 100 µM (plaque formation; HEL, TK- 07-1).

Excerpt of the above:
`NC1=NC(=O)N(CC(O)C(F)(F)F)CN1` (centres unmarked) gave an EC50 of greater than 100 µM (plaque formation; HEL, TK-deficient 07-1).
`Nc1ncn(C[C@@H](CF)OCP(=O)(O)O)c(=O)n1` has an EC50 of greater than 100 µM (plaque formation; HEL, TK-deficient 07-1).
The EC50 of `O=Cc1cc(Cn2ccc(=O)[nH]c2=O)ccc1O` is reported as greater than 100 µM (plaque formation, plaque reduction; HEL fibroblasts, TK- strain 07-1).
